Experimental data of several laboratories.
A part holds a random share of what one study measured.
UniProt Q9P289, sequence (whole entry, looked up): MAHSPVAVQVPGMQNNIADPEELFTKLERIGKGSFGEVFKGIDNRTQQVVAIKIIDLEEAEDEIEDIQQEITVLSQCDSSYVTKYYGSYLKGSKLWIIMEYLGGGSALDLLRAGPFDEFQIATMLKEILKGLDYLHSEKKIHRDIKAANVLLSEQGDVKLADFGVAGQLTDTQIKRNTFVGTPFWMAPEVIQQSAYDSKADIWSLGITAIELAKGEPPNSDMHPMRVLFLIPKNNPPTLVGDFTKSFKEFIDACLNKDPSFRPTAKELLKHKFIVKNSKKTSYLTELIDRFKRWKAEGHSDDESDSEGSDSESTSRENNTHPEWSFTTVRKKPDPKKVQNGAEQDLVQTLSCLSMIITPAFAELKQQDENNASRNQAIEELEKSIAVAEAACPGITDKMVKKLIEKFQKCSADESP
UniProt P35626, sequence (whole entry, looked up): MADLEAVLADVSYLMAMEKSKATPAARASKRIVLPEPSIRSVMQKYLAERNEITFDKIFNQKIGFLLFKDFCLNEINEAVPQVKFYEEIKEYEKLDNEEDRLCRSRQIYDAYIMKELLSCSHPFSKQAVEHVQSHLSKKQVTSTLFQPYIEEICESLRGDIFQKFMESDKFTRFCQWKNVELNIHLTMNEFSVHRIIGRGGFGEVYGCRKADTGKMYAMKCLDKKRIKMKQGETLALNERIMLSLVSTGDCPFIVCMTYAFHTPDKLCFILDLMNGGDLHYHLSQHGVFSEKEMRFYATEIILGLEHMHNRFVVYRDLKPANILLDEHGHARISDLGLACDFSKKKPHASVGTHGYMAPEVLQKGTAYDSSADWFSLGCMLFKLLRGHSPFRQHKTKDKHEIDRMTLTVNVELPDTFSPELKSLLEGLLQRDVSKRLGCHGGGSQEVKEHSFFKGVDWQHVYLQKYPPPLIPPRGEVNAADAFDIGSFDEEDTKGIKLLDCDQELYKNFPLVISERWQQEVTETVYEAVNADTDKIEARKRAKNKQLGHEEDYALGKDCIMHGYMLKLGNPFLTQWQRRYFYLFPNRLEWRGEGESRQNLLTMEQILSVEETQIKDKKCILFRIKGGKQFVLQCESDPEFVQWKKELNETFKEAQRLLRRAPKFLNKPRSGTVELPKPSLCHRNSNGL
UniProt P07949, sequence (whole entry, looked up): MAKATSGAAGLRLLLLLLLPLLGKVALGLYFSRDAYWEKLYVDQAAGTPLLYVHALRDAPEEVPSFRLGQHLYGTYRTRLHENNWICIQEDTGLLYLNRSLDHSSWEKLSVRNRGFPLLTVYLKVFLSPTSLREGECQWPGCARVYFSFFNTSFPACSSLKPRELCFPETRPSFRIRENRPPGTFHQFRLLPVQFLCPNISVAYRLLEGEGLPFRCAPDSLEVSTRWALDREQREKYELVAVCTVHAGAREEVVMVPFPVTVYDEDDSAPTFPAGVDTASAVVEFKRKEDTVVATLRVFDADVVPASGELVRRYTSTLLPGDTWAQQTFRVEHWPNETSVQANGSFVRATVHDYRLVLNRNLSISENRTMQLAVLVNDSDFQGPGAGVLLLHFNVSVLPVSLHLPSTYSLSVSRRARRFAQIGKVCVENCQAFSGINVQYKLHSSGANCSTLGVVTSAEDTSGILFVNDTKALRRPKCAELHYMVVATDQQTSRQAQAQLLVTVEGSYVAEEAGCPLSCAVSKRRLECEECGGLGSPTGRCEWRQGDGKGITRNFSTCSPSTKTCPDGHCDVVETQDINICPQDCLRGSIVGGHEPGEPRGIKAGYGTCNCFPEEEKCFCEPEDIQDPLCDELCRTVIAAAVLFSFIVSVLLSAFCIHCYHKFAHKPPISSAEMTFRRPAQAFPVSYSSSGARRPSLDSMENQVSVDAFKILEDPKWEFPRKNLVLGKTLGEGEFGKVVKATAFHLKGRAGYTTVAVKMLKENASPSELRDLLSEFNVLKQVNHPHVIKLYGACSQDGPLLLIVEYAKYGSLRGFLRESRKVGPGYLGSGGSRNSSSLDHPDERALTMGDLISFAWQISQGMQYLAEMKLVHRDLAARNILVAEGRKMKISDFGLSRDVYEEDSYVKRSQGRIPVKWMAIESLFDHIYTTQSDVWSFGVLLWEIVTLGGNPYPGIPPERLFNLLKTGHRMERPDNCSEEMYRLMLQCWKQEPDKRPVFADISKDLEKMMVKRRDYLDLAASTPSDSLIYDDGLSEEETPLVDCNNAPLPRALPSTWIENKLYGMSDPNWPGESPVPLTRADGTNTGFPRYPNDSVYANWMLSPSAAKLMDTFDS
UniProt P00519, sequence (whole entry, unmodified, looked up): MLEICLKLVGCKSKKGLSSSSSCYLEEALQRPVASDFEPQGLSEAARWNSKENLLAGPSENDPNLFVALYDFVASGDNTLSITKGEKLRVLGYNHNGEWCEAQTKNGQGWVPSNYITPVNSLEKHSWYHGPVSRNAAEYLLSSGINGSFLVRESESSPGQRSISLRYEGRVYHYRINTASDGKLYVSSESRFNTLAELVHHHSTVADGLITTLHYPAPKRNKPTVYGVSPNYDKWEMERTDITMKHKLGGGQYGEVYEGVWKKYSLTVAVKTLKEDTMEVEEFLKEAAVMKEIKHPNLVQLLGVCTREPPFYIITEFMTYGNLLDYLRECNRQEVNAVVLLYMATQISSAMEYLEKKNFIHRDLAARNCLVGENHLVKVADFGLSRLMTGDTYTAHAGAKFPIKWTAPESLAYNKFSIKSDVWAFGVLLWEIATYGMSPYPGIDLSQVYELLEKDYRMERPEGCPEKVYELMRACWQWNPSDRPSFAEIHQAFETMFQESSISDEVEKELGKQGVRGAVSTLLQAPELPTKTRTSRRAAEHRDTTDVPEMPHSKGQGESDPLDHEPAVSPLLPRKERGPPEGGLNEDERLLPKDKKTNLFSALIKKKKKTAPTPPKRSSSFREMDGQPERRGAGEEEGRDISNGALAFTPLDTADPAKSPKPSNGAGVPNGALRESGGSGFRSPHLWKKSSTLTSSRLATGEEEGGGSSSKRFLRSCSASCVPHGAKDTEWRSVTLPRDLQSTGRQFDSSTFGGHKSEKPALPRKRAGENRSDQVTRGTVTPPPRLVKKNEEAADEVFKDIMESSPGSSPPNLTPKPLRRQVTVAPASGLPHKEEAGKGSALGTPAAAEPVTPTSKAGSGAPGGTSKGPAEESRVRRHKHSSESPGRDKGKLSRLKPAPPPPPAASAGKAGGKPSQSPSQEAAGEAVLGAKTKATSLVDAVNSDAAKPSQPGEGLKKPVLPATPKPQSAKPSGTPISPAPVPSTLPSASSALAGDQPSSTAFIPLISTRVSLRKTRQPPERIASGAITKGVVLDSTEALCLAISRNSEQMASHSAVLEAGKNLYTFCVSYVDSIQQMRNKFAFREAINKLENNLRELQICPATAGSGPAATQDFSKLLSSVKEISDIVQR
UniProt Q96D53, sequence (whole entry, looked up): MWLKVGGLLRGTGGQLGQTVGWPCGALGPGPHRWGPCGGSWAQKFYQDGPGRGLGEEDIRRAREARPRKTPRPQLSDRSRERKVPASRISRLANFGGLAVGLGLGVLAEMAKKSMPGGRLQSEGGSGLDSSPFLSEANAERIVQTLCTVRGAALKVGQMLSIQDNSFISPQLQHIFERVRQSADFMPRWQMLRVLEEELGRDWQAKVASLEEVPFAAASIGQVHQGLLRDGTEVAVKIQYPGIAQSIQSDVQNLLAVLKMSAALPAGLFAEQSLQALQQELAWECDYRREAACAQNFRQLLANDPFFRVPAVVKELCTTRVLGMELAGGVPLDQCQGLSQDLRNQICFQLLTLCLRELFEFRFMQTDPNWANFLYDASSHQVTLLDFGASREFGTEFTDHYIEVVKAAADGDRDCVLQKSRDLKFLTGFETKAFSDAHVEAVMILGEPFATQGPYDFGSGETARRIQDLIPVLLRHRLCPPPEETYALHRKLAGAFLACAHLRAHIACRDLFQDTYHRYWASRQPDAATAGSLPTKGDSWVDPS
UniProt P23458, sequence (whole entry, looked up): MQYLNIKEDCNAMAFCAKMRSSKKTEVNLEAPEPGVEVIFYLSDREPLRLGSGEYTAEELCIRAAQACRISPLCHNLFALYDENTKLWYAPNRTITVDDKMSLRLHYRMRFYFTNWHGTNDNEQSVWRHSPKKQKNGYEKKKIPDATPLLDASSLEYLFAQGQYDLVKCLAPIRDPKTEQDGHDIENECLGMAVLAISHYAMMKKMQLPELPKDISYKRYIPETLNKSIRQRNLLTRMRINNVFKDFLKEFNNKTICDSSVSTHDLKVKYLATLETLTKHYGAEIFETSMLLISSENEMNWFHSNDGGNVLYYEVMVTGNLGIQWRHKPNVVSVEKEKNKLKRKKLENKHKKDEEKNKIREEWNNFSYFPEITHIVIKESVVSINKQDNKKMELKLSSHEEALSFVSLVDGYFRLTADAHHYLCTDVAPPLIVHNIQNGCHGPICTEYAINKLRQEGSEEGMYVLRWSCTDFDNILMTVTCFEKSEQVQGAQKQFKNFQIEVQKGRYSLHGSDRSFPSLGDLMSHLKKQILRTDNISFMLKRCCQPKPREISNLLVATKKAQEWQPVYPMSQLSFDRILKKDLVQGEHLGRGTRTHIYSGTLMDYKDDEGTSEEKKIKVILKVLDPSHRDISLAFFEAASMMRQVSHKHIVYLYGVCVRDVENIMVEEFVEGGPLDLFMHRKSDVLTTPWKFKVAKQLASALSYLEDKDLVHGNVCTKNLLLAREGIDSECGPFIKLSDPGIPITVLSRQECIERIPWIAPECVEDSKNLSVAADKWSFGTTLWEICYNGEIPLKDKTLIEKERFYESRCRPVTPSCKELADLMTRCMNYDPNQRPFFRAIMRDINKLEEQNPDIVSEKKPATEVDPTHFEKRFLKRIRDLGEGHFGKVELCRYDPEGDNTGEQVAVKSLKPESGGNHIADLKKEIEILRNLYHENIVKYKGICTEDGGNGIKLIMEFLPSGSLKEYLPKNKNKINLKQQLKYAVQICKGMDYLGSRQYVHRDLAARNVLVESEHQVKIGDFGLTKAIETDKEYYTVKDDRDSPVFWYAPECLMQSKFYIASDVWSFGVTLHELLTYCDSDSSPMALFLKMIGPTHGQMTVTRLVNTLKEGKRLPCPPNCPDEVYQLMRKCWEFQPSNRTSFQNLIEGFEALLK

Study 1 — cell line: HuT78; tested at: 2 µM; time: 48 h; baseline: untreated; quantity: viability
COc1ccc(S(=O)(=O)N(CCO)c2ccccc2CN(C)C/C=C/c2ccc(Cl)cc2)cc1: 115%
CO[C@H]1C[C@@H]2CC[C@@H](C)[C@@](O)(O2)C(=O)C(=O)N2CCCC[C@H]2C(=O)O[C@H]([C@H](C)C[C@@H]2CC[C@@H](OC(=O)C(C)(CO)CO)[C@H](OC)C2)CC(=O)[C@H](C)/C=C(\C)[C@@H](O)[C@@H](OC)C(=O)[C@H](C)C[C@H](C)/C=C/C=C/C=C/1C: 91.6%
CC[C@H](Nc1ncnc2[nH]cnc12)c1nc2cccc(F)c2c(=O)n1-c1ccccc1: 104%
O=C(NCc1cccc(O)c1)Nc1nc(-c2ccncc2)cs1: 88.5%
O=c1[nH]nc(Sc2ncc([N+](=O)[O-])s2)n1-c1ccc2c(c1)OCCO2: 94%
CNC(=O)CN1CCC(Oc2cc3c(Nc4cccc(Cl)c4F)ncnc3cc2OC)CC1: 123%
C[C@]1(O)C[C@@H](c2nc(-c3ccc4ccc(-c5ccccc5)nc4c3)c3c(N)nccn32)C1: 110%
C=CC(=O)Nc1cccc(Nc2nc(Nc3ccc(N4CCN(C(C)=O)CC4)cc3OC)ncc2C(F)(F)F)c1: 76.2%
COC(=O)Nc1ccc(-c2nc(N3CCOCC3)c3cnn(C4CCN(C(=O)OC)CC4)c3n2)cc1: 118%
O=c1cc(-c2cccc3c2Sc2ccccc2S3)oc(N2CCOCC2)c1: 167%
C1=N/C2=N/c3ccc(OCCN4CCCC4)c(c3)COC/C=C/COCc3cccc(c3)C(=C1)N2: 83.1%
CO[C@H]1C[C@@H]2CC[C@@H](C)[C@@](O)(O2)C(=O)C(=O)N2CCCC[C@H]2C(=O)O[C@H]([C@H](C)C[C@@H]2CC[C@@H](OCCO)[C@H](OC)C2)CC(=O)[C@H](C)/C=C(\C)[C@@H](O)[C@@H](OC)C(=O)[C@H](C)C[C@H](C)/C=C/C=C/C=C/1C: 57.5%
Cc1cn(-c2cc(NC(=O)c3ccc(C)c(Nc4nccc(-c5cccnc5)n4)c3)cc(C(F)(F)F)c2)cn1: 125%
CCCCCCCCCCCCCCCc1cccc(O)c1C(=O)O: 112%
COc1nccc(-c2c(-c3ccc(F)cc3)ncn2[C@H]2CC[C@H](O)CC2)n1: 91%

Study 2 — read-out: cell-free assay; method: competition with immobilised ligand; tested at: 1 µM; quantity: remaining binding
SMILES: CCc1ccccc1C(=O)Nc1n[nH]c2c(C)c(F)c(C3C(C#N)=C(C)N(C)C(C)=C3C#N)cc12
Serine/threonine-protein kinase PAK 3 (PAK3, Homo sapiens, UniProt O75914): 86%
Atypical kinase COQ8B, mitochondrial (COQ8B, Homo sapiens, UniProt Q96D53): 96%
Cyclin-dependent kinase 3 (CDK3, Homo sapiens, UniProt Q00526): 88%
Cyclin-dependent kinase 16 (CDK16, Homo sapiens, UniProt Q00536): 100%
Serine/threonine-protein kinase 26 (STK26, Homo sapiens, UniProt Q9P289): 98%
Mitogen-activated protein kinase kinase kinase 2 (MAP3K2, Homo sapiens, UniProt Q9Y2U5): 100%
Cyclin-dependent kinase 8 (CDK8, Homo sapiens, UniProt P49336): 71%
G protein-coupled receptor kinase 3 (GRK3, Homo sapiens, UniProt P35626): 100%
Cyclin-dependent kinase 4, with cyclin D1 (CDK4, Homo sapiens, UniProt P11802): 98%
Serine/threonine-protein kinase Nek9 (NEK9, Homo sapiens, UniProt Q8TD19): 93%
Serine/threonine-protein kinase SIK3 (SIK3, Homo sapiens, UniProt Q9Y2K2): 74%
Mitogen-activated protein kinase 15 (MAPK15, Homo sapiens, UniProt Q8TD08): 81%
Interleukin-1 receptor-associated kinase 1 (IRAK1, Homo sapiens, UniProt P51617): 100%
Serine/threonine-protein kinase D2 (PRKD2, Homo sapiens, UniProt Q9BZL6): 87%
Dual specificity mitogen-activated protein kinase kinase 5 (MAP2K5, Homo sapiens, UniProt Q13163): 100%
Tyrosine-protein kinase ABL1, phosphorylated (ABL1, Homo sapiens, UniProt P00519, F317L): 89%
Serine/threonine-protein kinase NIM1 (NIM1K, Homo sapiens, UniProt Q8IY84): 100%
Serine/threonine-protein kinase 25 (STK25, Homo sapiens, UniProt O00506): 80%
Activin receptor type-1 (ACVR1, Homo sapiens, UniProt Q04771): 100%
Proto-oncogene tyrosine-protein kinase receptor Ret (RET, Homo sapiens, UniProt P07949): 65%
Tyrosine-protein kinase JAK1, JH1 (JAK1, Homo sapiens, UniProt P23458): 97%
Ribosomal protein S6 kinase alpha-1, C-terminal kinase domain (RPS6KA1, Homo sapiens, UniProt Q15418): 100%
Receptor tyrosine-protein kinase erbB-2 (ERBB2, Homo sapiens, UniProt P04626): 71%
Mitogen-activated protein kinase 13 (MAPK13, Homo sapiens, UniProt O15264): 96%
Ephrin type-A receptor 6 (EPHA6, Homo sapiens, UniProt Q9UF33): 57%

Study 3 — read-out: enzyme activity; action: inhibitor; tested at: 0.5 µM; baseline: control; quantity: remaining activity
Target: TGF-beta receptor type-1 (TGFBR1, Homo sapiens, UniProt P36897)
Target sequence (P36897 1-503): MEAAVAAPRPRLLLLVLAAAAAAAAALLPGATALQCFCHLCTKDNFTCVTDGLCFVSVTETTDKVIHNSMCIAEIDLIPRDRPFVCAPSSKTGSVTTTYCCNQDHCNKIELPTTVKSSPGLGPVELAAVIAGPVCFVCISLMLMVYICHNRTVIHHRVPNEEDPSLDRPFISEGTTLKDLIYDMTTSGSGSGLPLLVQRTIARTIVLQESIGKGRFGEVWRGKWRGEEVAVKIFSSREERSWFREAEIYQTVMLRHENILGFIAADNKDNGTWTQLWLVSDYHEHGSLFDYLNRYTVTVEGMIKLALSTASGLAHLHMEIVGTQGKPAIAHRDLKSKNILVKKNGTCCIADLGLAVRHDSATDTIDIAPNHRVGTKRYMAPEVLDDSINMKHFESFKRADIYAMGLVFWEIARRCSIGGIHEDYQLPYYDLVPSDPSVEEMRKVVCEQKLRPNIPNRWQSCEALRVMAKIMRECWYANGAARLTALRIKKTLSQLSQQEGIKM
N#CC(c1ccnc(NCCc2cccnc2)n1)c1nc2ccccc2s1 (centres unmarked): 97.8%
Clc1ccc(Nc2nnc(Cc3ccncc3)c3ccccc23)cc1: 96.8%
CC(C)N(CCC(=O)c1ccc2ccccc2c1)Cc1ccccc1: 92.5%
c1cc(-c2cnn3cc(-c4ccc(OCCN5CCCCC5)cc4)cnc23)ccn1: 107%
N#C/C(=C(/N)SC1C=CC=CC1)c1cccc(C(O)c2ccncc2)c1 (centres unmarked): 97.3%
O=C1NC(=O)/C(=C/c2ccc3c(c2)OC(F)(F)O3)S1: 102%
CNc1cc2c(Nc3cccc(Br)c3)ncnc2cn1: 97.7%
O=Nc1c(-c2c(O)[nH]c3ccccc23)[nH]c2ccccc12: 98.9%
C[C@@H](N)[C@H]1CC[C@H](C(=O)Nc2ccncc2)CC1: 98%
Nc1nc(Nc2ccc(S(N)(=O)=O)cc2)nn1C(=S)Nc1c(F)cccc1F: 81.8%
CC(C)(C)c1nc2c3cc[nH]c(=O)c3c3cc(F)ccc3c2[nH]1: 102%
COc1cc2c(N3CCN(C(=O)Nc4ccc(OC(C)C)cc4)CC3)ncnc2cc1OCCCN1CCCCC1: 102%
NC(=O)c1cccc(-c2cc(Nc3ccc(OC(F)(F)F)cc3)ncn2)c1: 103%
CCCCc1c(-c2ccc(O)cc2)[nH]c2nccnc12: 100%
FC(F)(F)c1ccc(/C=C/c2nc(COc3ccc(CCCCn4ccnn4)cc3)co2)cc1: 98.8%
O=C(c1ccccc1)c1ccc(N2CCOCC2)cc1O: 94.3%
O=C(O)/C=C/c1cc(Br)c(Br)c(Br)c1Br: 90.8%
COc1cc2c(Nc3ccc(Br)cc3F)ncnc2cc1OCC1CCN(C)CC1: 102%
CCN(CC)CCCCN1c2ccccc2Oc2ccc(Cl)cc21: 97.2%
O=c1c(-c2ccc(F)cc2)c(-c2ccncc2)[nH]n1-c1ccc(Cl)cc1: 101%
CC(C)n1cnc2c(Nc3cccc(Cl)c3)nc(NCCO)nc21: 97.7%

Single results of other studies
COc1ccc2[nH]c3c4[nH]c5ccc(OC)cc5c4c4c(c3c2c1)C(=O)NC4=O  receptor occupancy (Proto-oncogene tyrosine-protein kinase Src (SRC, Homo sapiens, UniProt P12931); 1 µM): -49.8%

Repeated from above (study 2):
Mitogen-activated protein kinase 15 (MAPK15, Homo sapiens, UniProt Q8TD08): 81%
Serine/threonine-protein kinase D2 (PRKD2, Homo sapiens, UniProt Q9BZL6): 87%
Cyclin-dependent kinase 4, with cyclin D1 (CDK4, Homo sapiens, UniProt P11802): 98%
Interleukin-1 receptor-associated kinase 1 (IRAK1, Homo sapiens, UniProt P51617): 100%
Tyrosine-protein kinase ABL1, phosphorylated (ABL1, Homo sapiens, UniProt P00519, F317L): 89%
